Experimental data gathered from unrelated publications.
Numbered parts are unrelated; each lists some results of a single study. Changes are numbered by the printed parent chain.

Block 1
Target: Interferon regulatory factor 7, full length, phosphomimetic (IRF7, Homo sapiens, UniProt Q92985, residues 1-503, S471D/S472D/S475D/S476D/S477D/S483D/S484D/S487D)
Method: protein-binding microarray
Molecule type: double-stranded DNA, one strand shown
Matrix: in vitro
Tested at: 2200 nM top
Notes: 60-bp whole probe
With: salmon DNA 0.4 mg/ml
Relative to: random background probes
Direction: higher = stronger binding
Endpoint: fitted relative affinity
All sequences stand within: GCCTAGCAC … GTCTTGATTCGCTTGACGCTGCTG
Target sequence (chain): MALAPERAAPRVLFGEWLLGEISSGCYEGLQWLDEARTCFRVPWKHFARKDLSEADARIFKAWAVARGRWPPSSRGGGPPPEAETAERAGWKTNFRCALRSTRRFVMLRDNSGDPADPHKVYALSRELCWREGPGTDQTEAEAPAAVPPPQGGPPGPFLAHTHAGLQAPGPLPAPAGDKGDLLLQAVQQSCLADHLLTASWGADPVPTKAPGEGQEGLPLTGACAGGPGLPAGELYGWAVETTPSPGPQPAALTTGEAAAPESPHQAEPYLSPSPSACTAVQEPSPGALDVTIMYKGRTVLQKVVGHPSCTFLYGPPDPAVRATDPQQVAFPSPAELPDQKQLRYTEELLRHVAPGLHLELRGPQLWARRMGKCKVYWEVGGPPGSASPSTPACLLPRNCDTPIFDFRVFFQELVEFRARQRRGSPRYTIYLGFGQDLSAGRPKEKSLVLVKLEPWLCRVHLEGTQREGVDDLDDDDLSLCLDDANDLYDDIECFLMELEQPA
TTAGATGTCAGTTCCGATTAGTGCTAG: 0.994 z-score
TCAACTTTCTCTGCTCTTACTGTGCTA: 1.7 z-score
TAAGGTTTCCTTCTCCTTTAGTGCTAG: 2.31 z-score
TTCGAACTGGGGTATCGATTAGTGCTA: 0.345 z-score
TTTGAACTGAGTCTCGATTAGTGCTAG: 0.0242 z-score
TTATGTATCGACTATCGGTTAGTGCTA: 1.07 z-score
TGCTCTCCGGGGTCTGTGAGGGTGCTA: -0.184 z-score
TTAGGTCTCCAACTGCTTTAGTGCTAG: 0.309 z-score
TTCGGTCTCGGTATCGGTTAGTGCTAG: 1.62 z-score
GACGGTTTCCTTCTGCTGACGTGCTAG: 3.19 z-score
TTAGATATCAGTTTCGCTTAGTGCTAG: 5.43 z-score
CTTCCACTTAGGGTGGCTGGGTGCTAG: 0.68 z-score
GACGGTATACTACTGCTGACGTGCTAG: 0.422 z-score
TTAGGTTCCGGTTTCGCTTAGTGCTAG: 6.96 z-score

Block 2
Target: RNA binding protein fox-1 homolog 2, RRM domain, GST-SBP tag (RBFOX2, Homo sapiens, UniProt O43251-10, residues 100-194)
Method: RNA Bind-n-Seq
Molecule type: RNA
Matrix: in vitro
Tested at: 365 nM
Notes: natural RNA segment, single round, ends assumed
Relative to: no-protein control
Direction: higher = stronger binding
Endpoint: RBNS enrichment (R)
Residues (chain): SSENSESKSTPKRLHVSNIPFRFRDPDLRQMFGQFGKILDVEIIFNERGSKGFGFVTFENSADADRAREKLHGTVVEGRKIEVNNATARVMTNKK
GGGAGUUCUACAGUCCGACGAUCUCUCCUUCACAGUGAGGAAAAAGAGAAGGGUAGAAACUUUAGGGAGCCGGAUUUGUGUAUCAAUUCCUCCGCUGACAGUCAGUUUCUAGAUGGAGACAGCCUGCUUAAAGUGGAAUUCUCGGGUGCCAA: 0.431
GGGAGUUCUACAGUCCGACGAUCAUGGUGAUUUUUUUACUUAAAAGCAGAAACAGAAGUUGACCUUCCUGACAUGUGUUUAAUAUUCCUCCUGCUUUUACAGAUUCUGACGUUUUCUUGAUAAUUGUAAGCUUUGGAAUUCUCGGGUGCCAA: 0.272
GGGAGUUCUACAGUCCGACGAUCCAUUCUUAAGCCUAUGCGAGUCCCCUAGAGAGAGGCAUUGUACUGAUAUAUAAAUAUUAUAUAAUAUAUACAUGAGACAUACUGACAGAAUCUGUAAGCUAAUAAAAUGUUGGAAUUCUCGGGUGCCAA: 0.72
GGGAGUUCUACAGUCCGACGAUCAGACCCUGUAUUUAAUCUACUUUGAUCAGAGAAGUAGAAUUUAUAACAGGUUAGCUAAAAUUGGGAGCAUGCCUUAAAACUUAAAGAUUGUAUGCAUAUAUGUGUAUAUGUGGAAUUCUCGGGUGCCAA: 1.44
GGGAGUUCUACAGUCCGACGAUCCUGUGCAGGAAAAAGGUUUUAUUCUCUCCUGGCAUACAUUAGAAUGUCAGAUGCUUGCAUCCAUGUGGACCACGAUGGGCCUCUAAAAAUUGGUGGGCAGGGGGUUUGCUUGGAAUUCUCGGGUGCCAA: 1.44
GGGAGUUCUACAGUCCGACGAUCUUAGUACGUUUUGAUUUUAAACAGGACCUUUGUGUGGUCAGAUCCCACAGCACUGCCUGUCCUUUUUUUUUUAACUGGAAAGACCUCCUUCAGACACUCUGCCUCUUAGUUGGAAUUCUCGGGUGCCAA: 0.507
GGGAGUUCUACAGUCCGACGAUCGGUCAUGGUGAGCAGCAGGCGCAAGCCAUGCAGCCUGUGGACUGUGCGCAUUGAUAUGUGGAGGCUGUUGAUUUCAACCUUUUUUAAACUUGUGUUUUUUAGUAAAAUUGUGGAAUUCUCGGGUGCCAA: 1.99

Block 3
Target: ABI1, truncated, D143A, DHFR fusion (Arabidopsis thaliana)
Method: DHFR PCA, deep sequencing
Matrix: yeast
Notes: methotrexate growth selection, single substitutions
With: (+)-ABA 0.11 µM
Relative to: wild-type fitted maximum
Direction: higher = stronger binding
Endpoint: relative binding score
Starting sequence: PYL1, truncated, DHFR fusion (Arabidopsis thaliana); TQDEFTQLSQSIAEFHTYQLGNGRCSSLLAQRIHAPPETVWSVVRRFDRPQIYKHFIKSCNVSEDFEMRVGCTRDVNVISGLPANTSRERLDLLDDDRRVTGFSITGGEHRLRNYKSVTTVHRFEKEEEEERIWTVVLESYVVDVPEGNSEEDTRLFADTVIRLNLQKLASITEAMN
I52E: 26.7%
V121Q: 3.47%
C25N: -0.975%
D95Q: 0.789%
V62I: 23.1%
V43C: 0.81%
E130P: 63.6%
G71W: -1.44%
V40C: -2.36%
W41N: -18.7%
Q167I: 4.61%
Q31G: -0.809%

Block 4
Target: Sal-like protein 4, full length isoform A (SALL4, Homo sapiens, UniProt Q9UJQ4, residues 1-1053)
UniProt Q9UJQ4, sequence (whole entry, looked up): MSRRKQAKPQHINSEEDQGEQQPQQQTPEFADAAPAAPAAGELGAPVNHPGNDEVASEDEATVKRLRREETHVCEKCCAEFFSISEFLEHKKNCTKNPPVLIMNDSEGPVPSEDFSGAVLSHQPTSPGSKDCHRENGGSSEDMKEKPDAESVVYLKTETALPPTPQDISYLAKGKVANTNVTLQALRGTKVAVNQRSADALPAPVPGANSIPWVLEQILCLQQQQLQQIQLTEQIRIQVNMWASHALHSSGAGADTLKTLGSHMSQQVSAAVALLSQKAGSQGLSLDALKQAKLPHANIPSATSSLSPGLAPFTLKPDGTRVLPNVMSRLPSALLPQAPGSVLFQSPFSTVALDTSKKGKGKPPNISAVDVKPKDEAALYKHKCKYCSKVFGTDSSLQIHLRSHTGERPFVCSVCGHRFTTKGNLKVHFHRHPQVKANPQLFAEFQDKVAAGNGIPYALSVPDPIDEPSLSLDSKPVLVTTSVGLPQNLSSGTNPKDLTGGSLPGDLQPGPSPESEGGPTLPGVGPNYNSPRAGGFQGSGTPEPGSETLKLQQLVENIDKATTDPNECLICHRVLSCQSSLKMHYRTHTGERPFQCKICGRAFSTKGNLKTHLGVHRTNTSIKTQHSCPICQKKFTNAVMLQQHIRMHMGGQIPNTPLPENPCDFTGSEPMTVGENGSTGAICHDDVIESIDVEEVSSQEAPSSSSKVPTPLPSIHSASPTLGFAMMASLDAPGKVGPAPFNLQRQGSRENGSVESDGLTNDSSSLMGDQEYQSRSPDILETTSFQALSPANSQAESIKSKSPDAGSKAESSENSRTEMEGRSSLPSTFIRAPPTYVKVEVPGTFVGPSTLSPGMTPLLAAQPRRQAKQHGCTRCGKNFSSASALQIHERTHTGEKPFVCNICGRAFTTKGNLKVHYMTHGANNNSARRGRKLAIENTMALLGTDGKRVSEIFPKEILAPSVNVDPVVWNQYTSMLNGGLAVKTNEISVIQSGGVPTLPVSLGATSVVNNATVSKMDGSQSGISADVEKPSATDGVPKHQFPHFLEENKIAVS
Method: universal PBM
Molecule type: double-stranded DNA, one strand shown
Matrix: in vitro
Tested at: 600 nM
Notes: 8-mer, flanks averaged, mean of replicates
Direction: higher = stronger binding
Endpoint: E-score
TAATTACA: 0.301
ACATGTCA: 0.0968
AGGGACGG: -0.315
AGTAACCG: -0.0596
AACGCTCA: -0.136
ACTATTTG: 0.258
CTAAGAAC: -0.106
AGAGTTAT: 0.257
CATTAGAA: 0.218
CGTTTTTA: 0.166
AGCCAAGA: 0.0993
GCATCATA: 0.299

Block 5
Target: Histone acetyltransferase KAT6A, winged helix 2, GST fusion (KAT6A, Homo sapiens, UniProt Q92794, residues 85-181)
Method: protein binding microarray
Molecule type: double-stranded DNA, one strand shown
Matrix: in vitro
Tested at: not given
Notes: 8-mer, flanks averaged, mean of 2 arrays, mostly near background
Relative to: not given
Direction: higher = stronger binding
Endpoint: E-score
Construct (chain): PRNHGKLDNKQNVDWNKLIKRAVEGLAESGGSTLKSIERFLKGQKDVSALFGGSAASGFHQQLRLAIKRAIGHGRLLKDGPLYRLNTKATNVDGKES
CCTTACCC: -0.151
ACCCCTTC: -0.209
AAGGCATA: 0.0476
GAGTTCCC: 0.171
ACATCTCA: -0.102
GAGTAGAA: -0.0602
ATCGGATA: -0.012
ATTTGGTG: 0.0041
CATTTATC: -0.0383
AATTTCCC: -0.121
AATTGCAC: 0.0846
CTTATGTA: 0.0359
TATAACCA: -0.199
GGTGGTGA: -0.0108
AGACAGCC: -0.199
CATTCACG: -0.00962
GAGGGGCC: 0.0647

Block 6
Target: Ras GTPase-activating protein-binding protein 1, RRM domain (G3BP1, Homo sapiens, UniProt Q13283)
UniProt Q13283, sequence (whole entry, looked up): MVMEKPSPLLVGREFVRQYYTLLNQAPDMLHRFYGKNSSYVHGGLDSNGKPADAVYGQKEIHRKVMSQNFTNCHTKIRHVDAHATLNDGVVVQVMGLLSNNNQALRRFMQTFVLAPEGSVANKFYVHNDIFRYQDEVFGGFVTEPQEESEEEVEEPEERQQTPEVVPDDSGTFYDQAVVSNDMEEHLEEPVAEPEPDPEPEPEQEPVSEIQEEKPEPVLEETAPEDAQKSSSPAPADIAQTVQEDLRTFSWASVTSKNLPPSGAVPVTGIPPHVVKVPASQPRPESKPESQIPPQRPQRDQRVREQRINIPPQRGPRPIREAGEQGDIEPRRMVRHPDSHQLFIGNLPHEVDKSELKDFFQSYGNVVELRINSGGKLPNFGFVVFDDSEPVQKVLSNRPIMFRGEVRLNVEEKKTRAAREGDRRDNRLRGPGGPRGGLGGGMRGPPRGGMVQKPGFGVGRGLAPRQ
Method: RNA Bind-n-Seq
Molecule type: RNA
Matrix: in vitro
Tested at: 1 µM
Notes: whole 134-nt RNA, ends assumed
With: 150 mM KCl
Relative to: input library
Direction: higher = stronger binding
Endpoint: log2 enrichment
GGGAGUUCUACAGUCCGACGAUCACCAUGCAGGUGGGCAUCUUUGGGAAGUGGGGCAAGGGGGGGAUAGGGAGGGGGGUAACACUUUGGGAACAGGUGGUCCCAGGUGGUUUCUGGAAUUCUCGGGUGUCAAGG: 0.81
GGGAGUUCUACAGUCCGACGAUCGUCCUGUGCUACACAUCGUAUGUACCGAAUCGGGAAAAAAAGGGUGGGUUUUUUUGGGAAAGUAUUAUGUUACGCCGUUCGGAUCUGCACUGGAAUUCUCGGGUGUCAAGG: 0.361
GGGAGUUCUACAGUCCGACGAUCUGGCCCUGGUGGCAUGCGGGGAGGAAGAGGUGGCCUCAUGGAUCGUGGUGGUCCCGGUGGAAUGUUCAGAGGUGGCCGUGGUGGAGACAAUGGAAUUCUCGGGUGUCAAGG: 1.19
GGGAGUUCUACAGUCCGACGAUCUGGCCCUGGUGGCAUGCGGGGAGGAAGAGGUGGCCUCAUGGAUCGUGGUGGUCCCGGUGGAAUCUUCAGAGGUGGCCGUGGUGGAGACAGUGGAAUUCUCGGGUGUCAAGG: 0.743
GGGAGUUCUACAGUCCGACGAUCUGGCCCUGGUGGCAUGCCGGGAGGAAGAGGUGGCCUCAUGGAUCGUGGUGGUCCCGGUGGAAUGUUCAGAGGUGGCCGUGGUGGAGACAGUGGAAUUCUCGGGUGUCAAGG: 0.84
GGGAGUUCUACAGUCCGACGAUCUUCAUGAGGACCUCCGCCUGCUCUUGGAGACCCACCUGCCGUCCAAAAAGAAGAAAGUACUCUUGGGAGUUGGGGAUCCCAAGAUUGGUGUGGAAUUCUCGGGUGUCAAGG: -0.0659
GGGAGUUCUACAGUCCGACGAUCGUCCUGUGCUACACAUCGUAUGUACCGAAUCAAAUUUUUUUAAAUUUUUAAAUUUAAAAAAGUAUUAUGUUACGCCGUUCGGAUCUGCACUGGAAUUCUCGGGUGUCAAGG: -0.853
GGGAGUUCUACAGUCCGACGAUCUGCCCAGCUCAUGCUGGACCACCUGAAGAACAGUGCUCCCAGCAAGCGAGAGAUUGCCCAGCUCAAGAACCAGGUAUCCACAGAGAGCACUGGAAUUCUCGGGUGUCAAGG: -0.346
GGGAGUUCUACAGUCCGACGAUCAGUCCUGUGCUACACAUCGUAUGUACCGAAUCGGGGAAAAAGGGGAGGGGUUUGGGGAAAGUAUUAUGUUACGCCGUUCGGAUCUGCACUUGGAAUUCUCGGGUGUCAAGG: 0.783
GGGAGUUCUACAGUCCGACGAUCUCCUGUGCUACACAUCGUAUGUACCGAAUCGGGGUGGGGAAAAAGGGGAAAAAAAGGGGAAAGUAUUAUGUUACGCCGUUCGGAUCUGCAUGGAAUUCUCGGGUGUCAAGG: 0.597
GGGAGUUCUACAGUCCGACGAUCUUUCUCUCACCAGGUACCAGGUCAUCAGUACACCAUCUGAUAUUUUCAUGGUGAUGGAAUAUGUCUCAGGAGGAGAGCUAUUUGAUUAUAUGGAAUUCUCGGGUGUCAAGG: -0.148
